Results gathered from unrelated publications.
Numbered parts are unrelated; each lists some results of a single study. Changes are numbered by the printed parent chain.

Study 1 — target: ATF7, bZIP domain (human); technique: DHFR protein complementation; matrix: yeast; reference: wild-type JUN-FOS pair; reading: higher = stronger binding
Notes: single substitutions, most at no-binding floor
Starting sequence: JUN, bZIP domain (human); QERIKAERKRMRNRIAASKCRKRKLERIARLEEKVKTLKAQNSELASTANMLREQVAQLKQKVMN; partner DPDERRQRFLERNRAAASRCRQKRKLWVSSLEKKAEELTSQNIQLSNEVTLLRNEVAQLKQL
Substitution	binding fitness
V35C	-1 natural log
A57V	-1.13 natural log
I28E	-0.996 natural log
V56G	-1.46 natural log
E44G	-1.35 natural log
E44N	-1.17 natural log
L31P	-1.5 natural log
T48D	-1.26 natural log
I28K	-1.05 natural log
T48K	-0.983 natural log
V56C	-1.28 natural log
S47H	-0.768 natural log
T37Q	-0.731 natural log
R53N	-1.45 natural log
R53I	-1.46 natural log
L52E	-1.48 natural log
S43V	-0.976 natural log
N42M	-1.39 natural log

Study 2 — technique: competition protein-binding microarray; form: double-stranded DNA, one strand shown; matrix: in vitro; tested at: 2 µM; with: Cbf1 competitor, 0.05 µM; reading: higher = stronger binding
Target: Phosphate system positive regulatory protein PHO4, full length, GST-tagged (PHO4, Saccharomyces cerevisiae, UniProt P07270, residues 1-312)
Notes: whole 60-bp probe, lowest competitor level
Residues (chain): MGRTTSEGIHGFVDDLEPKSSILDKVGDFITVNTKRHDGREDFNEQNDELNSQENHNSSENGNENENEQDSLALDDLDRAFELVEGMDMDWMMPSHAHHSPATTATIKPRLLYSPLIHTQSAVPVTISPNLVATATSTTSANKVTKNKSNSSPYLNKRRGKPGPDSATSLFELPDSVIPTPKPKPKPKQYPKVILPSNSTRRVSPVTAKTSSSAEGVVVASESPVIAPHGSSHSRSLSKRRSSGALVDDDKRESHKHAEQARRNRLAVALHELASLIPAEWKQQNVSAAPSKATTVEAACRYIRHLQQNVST
Sequence	fluorescence intensity
ATGAAAATGAAGAAATGCGTGATGGGAAATTACGGGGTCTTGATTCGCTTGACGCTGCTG	6600 a.u.
CTTCTGTAAATTTGCGCCGTGGGTGGACGCGCCCCGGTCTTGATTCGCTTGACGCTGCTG	5500 a.u.
GTTTCTCAGATTCTGCACATGGTACTTGATCTTGGTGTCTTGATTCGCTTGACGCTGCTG	11300 a.u.
CATACCCAACCTTGAGCGGTGGGTGAAGATATTTGTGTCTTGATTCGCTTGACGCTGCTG	3720 a.u.
GGAAATAACGCTCGAGGCGTGCTTTGTCCTTTTTTGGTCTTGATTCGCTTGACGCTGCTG	7570 a.u.
CTTTCCCGATCTTTTCACGTGAATTTAGCACATTTGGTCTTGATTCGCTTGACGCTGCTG	11200 a.u.
AAAGAAGAAGAAACCTCCGTGGGTAATCGTTTGAATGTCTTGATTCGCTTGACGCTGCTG	5110 a.u.
CTACCAATGTAGTCAAACGTGAAGCCGGGCTTGGAAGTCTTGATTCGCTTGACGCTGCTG	6140 a.u.
TCAGCTTAGCACAGACACGTTGTGGTCTGTAGGTCAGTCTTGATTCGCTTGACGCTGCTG	11900 a.u.
TATATCAGATAAGGACACGTGCCGATTCATTGGAAAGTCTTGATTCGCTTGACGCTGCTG	22500 a.u.
CTTTCCCGATCTTTTCACGTGGAGTTAGCACATTTGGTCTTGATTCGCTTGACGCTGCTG	12700 a.u.
TACATTCCATTTTTGCACGTGTTGGGGTACAGAATCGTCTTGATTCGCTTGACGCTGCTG	19000 a.u.
TGCGCAACAACTTGTCATGTGGGTGTATGTCTAGAAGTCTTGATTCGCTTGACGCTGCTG	8310 a.u.
TGGCATTCGTCTACCCACGTCTTGGGTGAATCTTGTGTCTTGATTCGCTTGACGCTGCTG	6150 a.u.
CCATATTGGATTACCCACGTCGCCGCGACAGGCCTTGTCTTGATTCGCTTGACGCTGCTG	5590 a.u.
CAAGCGGAGGAGCAACACGTGGCCCAGCAAAAGGAGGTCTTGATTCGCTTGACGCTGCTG	15600 a.u.
TGCACCAATGTCCTCCACGGGATCGCCACTTTTTTTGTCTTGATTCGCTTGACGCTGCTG	8180 a.u.
AAATTACTAAGTTTTCACGTGGCGTACCCCGTATGAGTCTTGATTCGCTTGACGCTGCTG	14100 a.u.
AAAAGGTTGACTGGGCTCGTGAAGATTTCGAAAAGAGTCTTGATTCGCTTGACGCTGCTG	4580 a.u.

Study 3 — technique: DHFR PCA, deep sequencing; matrix: yeast; with: (+)-ABA 1.4 µM; reference: wild-type fitted maximum; reading: higher = stronger binding
Target: ABI1, truncated, D143A, DHFR fusion (Arabidopsis thaliana)
Notes: methotrexate growth selection, single substitutions
Starting sequence: PYL1, truncated, DHFR fusion (Arabidopsis thaliana); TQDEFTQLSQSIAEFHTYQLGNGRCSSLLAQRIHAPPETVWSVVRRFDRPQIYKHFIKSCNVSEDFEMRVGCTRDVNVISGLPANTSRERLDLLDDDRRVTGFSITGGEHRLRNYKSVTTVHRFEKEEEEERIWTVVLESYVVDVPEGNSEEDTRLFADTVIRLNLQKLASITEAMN
Substitution	relative binding score [%]
T154K	-2.77
L82P	7.23
E152D	55.7
K54M	-8.9
P146E	-11.2
I57N	2.79
R45E	-2.22
S150V	5.72
H110K	12.3
V142D	7.16
E14I	3.66
T39Q	48.7
H34R	47.9
N114M	-4.94
E14L	14

Study 4 — target: CCND1, cyclin fold, Cln2 fusion (human); technique: yeast growth competition, sequencing; matrix: yeast; notes: weak parent motif; reference: not given; reading: higher = stronger binding
Starting sequence: GMNC docking peptide (human); KNAKRNLSSEFAN; partner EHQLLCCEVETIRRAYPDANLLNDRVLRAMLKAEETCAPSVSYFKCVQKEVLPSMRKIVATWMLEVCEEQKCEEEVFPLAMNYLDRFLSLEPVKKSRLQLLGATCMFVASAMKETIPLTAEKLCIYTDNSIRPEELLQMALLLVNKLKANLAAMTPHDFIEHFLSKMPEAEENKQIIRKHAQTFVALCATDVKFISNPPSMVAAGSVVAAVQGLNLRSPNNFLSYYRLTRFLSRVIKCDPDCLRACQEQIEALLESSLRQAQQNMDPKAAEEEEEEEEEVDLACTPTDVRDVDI
Substitution	normalised enrichment score
KNAFRNLSSEFAN [K4F]	0.214
KNAKRNLSSPFAN [E10P]	-0.0971
KNAKRNLSSAFAN [E10A]	-0.0913
KNAKRVLSSEFAN [N6V]	-0.019
KNAKRNLSSEFGN [A12G]	0.098
KNAKRCLSSEFAN [N6C]	0.315
KNAKRNLSKEFAN [S9K]	0.674
KNARRNLSSEFAN [K4R]	0.794
KNAKFNLSSEFAN [R5F]	-0.0198
KNAKRNLSSEFIN [A12I]	0.674
KNAKRRLSSEFAN [N6R]	0.377
KNAKRNLSSEKAN [F11K]	0.0749
KWAKRNLSSEFAN [N2W]	0.477
KNACRNLSSEFAN [K4C]	1.33
KNAKRILSSEFAN [N6I]	-0.0908
KNAKRWLSSEFAN [N6W]	0.265
KNAKRNLSSWFAN [E10W]	0.977
KNAKRNLSSECAN [F11C]	0.12
KNAKRNLGSEFAN [S8G]	0.424
KNAKRNLSYEFAN [S9Y]	0.729
KNAKRNLSSEFCN [A12C]	0.596
KNAKRNLSSEFRN [A12R]	0.257
KNAKRNLSSKFAN [E10K]	-0.227
KNAKRNLSSCFAN [E10C]	0.0722
KNAKRSLSSEFAN [N6S]	0.494

Single results of other studies
Substance	target	assay	system	setting	how to read	measurement	value
PhoQ, residues 284 288 289 292 302 303 SSTLLI	PhoP, residues 12 14 15 18 19 VHSCL (Escherichia coli, UniProt P23836)	Sort-seq, measured: YFP reporter	E. coli	PhoQ-PhoP variant library, with: 10 µM Mg2+	reference: high Mg2+ state, higher = stronger signaling	fold induction	12.3

Some of these lines once more (study 4):
Substitution	normalised enrichment score
KNAKRNLSSECAN [F11C]	0.12
KNAKRWLSSEFAN [N6W]	0.265
KNAFRNLSSEFAN [K4F]	0.214
KNAKRNLSSAFAN [E10A]	-0.0913
KNAKRVLSSEFAN [N6V]	-0.019
